Results gathered from unrelated publications.
Protocols differ between the studies behind these lines.
Organism: Mycolicibacterium smegmatis

SMILES	assay	test system	setting	MIC
Cc1ccc(CNC(=O)Cc2c(C)nc3ccc(C)cn23)cc1	microbial growth, broth dilution			> 50 µM
Cc1nc2ccc(Br)cn2c1C(=O)NCc1ccc2oc(-c3ccc(OC(F)(F)F)cc3)nc2c1			72 h	> 50 µM
CCCO[C@H]1[C@H](O)[C@@H](N)[C@@H](O[C@H]2[C@H](O[C@@H]3O[C@H](CO)[C@@H](O[C@H]4O[C@@H](CN)[C@@H](O)[C@H](O)[C@H]4N)[C@H]3O)[C@@H](O)[C@H](N)C[C@@H]2N)O[C@@H]1CO	microbial growth, broth dilution		72 h	8 µg/mL
CCc1ccn2c(C(=O)NCc3ccc(C)cc3)c(C)nc2c1	microbial growth, broth dilution			> 50 µM
CN[C@@H]1[C@H](O)[C@H](NC)[C@H]2O[C@]3(O)[C@H](O[C@@H]2[C@H]1O)O[C@H](C)C[C@H]3NC(=O)Cc1cc(Cl)ccn1				12.5 µg/mL
Cc1ccc2nc(C)c(CC(=O)NCc3ccc(N(C)C)cc3)n2c1	microbial growth, broth dilution			> 50 µM
CCO[C@H]1[C@H](O)[C@@H](N)[C@@H](O[C@H]2[C@H](O[C@@H]3O[C@H](CO)[C@@H](O[C@H]4O[C@@H](CN)[C@@H](O)[C@H](O)[C@H]4N)[C@H]3O)[C@@H](O)[C@H](N)C[C@@H]2N)O[C@@H]1CO	microbial growth, broth dilution		72 h	4 to 8 µg/mL
Cc1nc2ccc(Br)cn2c1C(=O)NCc1ccc2oc(-c3ccc(Cl)cc3)nc2c1			72 h	> 50 µM
O=C(NCc1ccccc1)C(CCc1ccccc1)N(CCc1c[nH]cn1)C(=O)c1ccccc1 (racemic)		mc2155		> 128 µM
CN[C@@H]1[C@H](O)[C@H](NC)[C@H]2O[C@]3(O)[C@H](O[C@@H]2[C@H]1O)O[C@H](C)C[C@H]3NC(=O)Cc1ccc(Cl)cn1				12.5 to 25 µg/mL
Cc1nc2cc(OC(F)(F)F)ccn2c1C(=O)NCc1ccc2oc(-c3ccc(OC(F)(F)F)cc3)nc2c1			72 h	> 50 µM
